Experimental data pooled from the literature.
Each numbered part is a random draw from the data of one study; scales do not carry over between parts.

Set 1 — technique: RNAcompete; molecule type: RNA; medium: in vitro; tested at: 20 nM; notes: 7-mer, probes averaged, single round; relative to: mean of 7-mers; reading: higher = stronger binding
Target: PABPC1L2, full length, GST fusion (mouse, UniProt A0ABA7IW68)
Construct (chain): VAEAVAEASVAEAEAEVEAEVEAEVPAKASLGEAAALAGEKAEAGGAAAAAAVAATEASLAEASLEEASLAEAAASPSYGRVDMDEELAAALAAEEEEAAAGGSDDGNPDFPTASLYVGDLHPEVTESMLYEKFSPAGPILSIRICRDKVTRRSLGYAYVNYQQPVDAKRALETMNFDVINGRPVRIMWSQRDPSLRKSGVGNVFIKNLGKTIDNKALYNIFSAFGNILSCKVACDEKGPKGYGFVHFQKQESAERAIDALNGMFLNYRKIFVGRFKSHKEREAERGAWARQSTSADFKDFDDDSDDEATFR
Oligonucleotide	7-mer Z-score
GUACAUU	-0.122
UCCAACA	-0.0391
UUAAGUU	-0.269
UAUGGCC	-0.17
UUCGUGG	-0.306
CGGCUUU	-0.233
ACUGUAA	0.0605
AGUCGAU	-0.34

Set 2 — technique: competition protein-binding microarray; molecule type: double-stranded DNA, one strand shown; medium: in vitro; tested at: 2 µM; added: Cbf1 competitor, 0.05 µM; reading: higher = stronger binding; constant ends, left off below: … GTCTTGATTCGCTTGACGCTGCTG
Target: Phosphate system positive regulatory protein PHO4, full length, GST-tagged (PHO4, Saccharomyces cerevisiae, UniProt P07270, residues 1-312)
Notes: whole 60-bp probe, lowest competitor level
Construct (chain): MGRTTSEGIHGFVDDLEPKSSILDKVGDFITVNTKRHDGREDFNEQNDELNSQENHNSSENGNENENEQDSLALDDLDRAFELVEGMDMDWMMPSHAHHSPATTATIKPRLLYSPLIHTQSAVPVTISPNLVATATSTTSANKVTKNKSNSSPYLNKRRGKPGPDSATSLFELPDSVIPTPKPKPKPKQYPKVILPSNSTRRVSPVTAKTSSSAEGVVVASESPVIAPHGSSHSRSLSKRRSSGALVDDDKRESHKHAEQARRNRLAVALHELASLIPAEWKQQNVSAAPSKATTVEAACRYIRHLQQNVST
Oligonucleotide	fluorescence intensity
TACCTGGGCATCCATCACGCTTCAGCCGCTCTGTGT	5540 a.u.
CCAAGGCAGCCTCACCACGGGCGGTCTTGTGGGAAA	6950 a.u.
GCAAGGAAGATGAAACACGATGTCGTTGTGATGAGG	9930 a.u.
TCACTCCTGATGAAGCTCGTGTGAAGGAATTCAACC	8380 a.u.
AAGCCCCAAAACGGCCACGTGATGGACTAGTTGCGC	15300 a.u.
GACAAGGACATTTTGCACGTTGACATTCCGGTAACT	11800 a.u.
TGCGCAACAACTTTACACGTGTTTTTATGTCTAGAA	17100 a.u.
GATTTGAATCCAATTCACGTTTCAAGTCATTTTGCC	7630 a.u.

Set 3 — technique: universal PBM; molecule type: double-stranded DNA, one strand shown; medium: in vitro; tested at: not given; reading: higher = stronger binding
Target: Sal-like protein 4, full length isoform B (SALL4, Homo sapiens, UniProt Q9UJQ4-2, residues 1-616)
Notes: 8-mer, flanks averaged, mean of replicates
Target sequence (chain): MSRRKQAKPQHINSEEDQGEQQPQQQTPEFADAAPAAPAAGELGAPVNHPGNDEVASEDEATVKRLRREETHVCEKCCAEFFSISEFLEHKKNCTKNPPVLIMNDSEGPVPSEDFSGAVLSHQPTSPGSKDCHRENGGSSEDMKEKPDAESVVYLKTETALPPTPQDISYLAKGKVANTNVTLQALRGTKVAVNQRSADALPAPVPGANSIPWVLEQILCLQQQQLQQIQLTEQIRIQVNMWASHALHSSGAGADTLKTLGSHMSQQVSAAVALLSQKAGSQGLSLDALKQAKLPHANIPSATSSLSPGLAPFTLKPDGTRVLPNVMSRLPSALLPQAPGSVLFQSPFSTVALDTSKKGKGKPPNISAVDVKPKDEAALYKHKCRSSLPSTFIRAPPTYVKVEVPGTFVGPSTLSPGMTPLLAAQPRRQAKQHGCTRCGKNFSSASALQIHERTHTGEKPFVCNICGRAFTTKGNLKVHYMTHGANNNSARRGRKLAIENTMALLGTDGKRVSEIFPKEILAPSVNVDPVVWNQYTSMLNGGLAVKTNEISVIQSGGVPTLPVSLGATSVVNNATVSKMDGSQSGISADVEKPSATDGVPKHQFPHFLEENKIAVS
Oligonucleotide	E-score
CAATAAGA	0.249
ACTGCTCG	-0.115
AATCCCTC	-0.0174
ATCTGTGC	0.0387
AGGTACAC	-0.105
AAGCGGAT	-0.0616
ACTTTGAT	-0.056
ACACCAGA	0.059

Single results of other studies
Compound	target	read-out	action	tested at	relative to	endpoint	result
COc1ccc(COc2ccc(Cc3cnc(N)nc3N)cc2OC)cc1	Testis-specific serine/threonine-protein kinase 2 (TSSK2, Homo sapiens, UniProt Q96PF2)	enzyme activity	inhibitor	0.5 µM	control	remaining activity	109%
